Experimental data pooled from the literature.
A part holds a random share of what one study measured. Changes are numbered by the printed parent chain.

Series 1
Target: NFE2L2, bZIP domain (human)
Method: DHFR protein complementation
Medium: yeast
Setting: single substitutions, most at no-binding floor
Relative to: wild-type JUN-FOS pair
Direction: higher = stronger binding
Starting sequence: JUN, bZIP domain (human); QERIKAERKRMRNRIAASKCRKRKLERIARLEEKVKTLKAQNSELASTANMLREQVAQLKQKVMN; partner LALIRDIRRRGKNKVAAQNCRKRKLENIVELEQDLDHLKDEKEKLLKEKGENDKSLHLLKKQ
Change	binding fitness
V35T	-1.49 natural log
R30G	-1.31 natural log
A40T	-1.42 natural log
S47E	-1.35 natural log
R30W	-1.31 natural log

Series 2
Target: Histone acetyltransferase KAT6A, both winged helices, GST fusion (KAT6A, Homo sapiens, UniProt Q92794, residues 1-181)
Method: protein binding microarray
Molecule type: double-stranded DNA, one strand shown
Medium: in vitro
Tested at: not given
Setting: 8-mer, flanks averaged, mean of 2 arrays, mostly near background
Relative to: not given
Direction: higher = stronger binding
Construct (chain): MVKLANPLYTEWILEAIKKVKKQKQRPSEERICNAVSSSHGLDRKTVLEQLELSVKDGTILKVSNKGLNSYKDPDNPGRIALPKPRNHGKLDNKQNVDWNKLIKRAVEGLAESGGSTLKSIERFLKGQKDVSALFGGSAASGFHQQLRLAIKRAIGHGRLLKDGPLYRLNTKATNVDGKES
Sequence	E-score
CCGGACAA	0.227
GAGTTGTA	-0.0917
AAGTTGGC	-0.103
AACGTCCA	-0.0209
TATTCAAA	0.151
ATGTCGCA	0.215
ATGTTGCC	0.0722
ACCAGATA	-0.0982

Series 3
Target: Prothrombin, mature alpha-thrombin (F2, Homo sapiens, UniProt P00734)
Method: aptamer microarray, sandwich
Molecule type: DNA with 2'F-ANA
Medium: in vitro
Tested at: 200 nM
Setting: whole 15-mer aptamer, many near background
With: Cy3 exosite-II aptamer, 400 nM
Direction: higher = stronger binding
Sequence: GGTTGGTGTGGTTGG
Modification	mean fluorescence intensity [a.u.]
2'F-ANA at 1 2 3 4 6 7 8 13	124
2'F-ANA at 1 2 4 7 8 10 12 13	54.2
2'F-ANA at 1 2 4 6 8 10 11	51.4
2'F-ANA at 1 3 5 8 11 13	57.3
2'F-ANA at 4 5 6 8 9 11 12	102

Mixed results
Substance	target	test	test system	conditions	scale	measurement	result
PhoQ, residues 284 288 289 292 302 303 DDMDFR	PhoP, residues 12 14 15 18 19 GQAIL (Escherichia coli, UniProt P23836)	Sort-seq, item: YFP reporter	E. coli	PhoQ-PhoP variant library, with: 10 µM Mg2+	relative to: high Mg2+ state, higher = stronger signaling	fold induction	0.851

For quick reference, copied from above (series 2):
Sequence	E-score
TATTCAAA	0.151
ATGTCGCA	0.215
